Experimental data pooled from the literature.
Lines come from different studies, so protocols differ. “And” joins repeats or separate records; there may be more than shown. ± gives the spread as reported.

Substance = COc1cc2c(OCCCN3CCOCC3)c3c(c(-c4ccc5c(c4)OCO5)c2cc1OC)C(=O)OC3; target or system = VSV pseudotyped with Ebola virus GP; assay = viral entry, refers to: GFP; endpoint = IC50; result = 0.107 ± 0.0237 µM
Substance = CCc1c(C(=O)C(N)=O)c2c(OCC(=O)O)cccc2n1Cc1ccccc1; test system = PB population, mouse; setting = intravenous, 120 µg/mouse, 24 h, given 30 min after venom, together with: Daboia russelii venom 2.5 x LD50 i.p.; endpoint = survival; result = 100%
Substance = CCCCCCCC/C=C\CCCCCCCC(=O)O; target or system = Human immunodeficiency virus 1; assay = viral entry, inhibitor; test system = Calu-3; setting = pseudovirus; endpoint = IC50; result = 25 µM
Substance = Nc1ncnc2c([C@@H]3N[C@H](CO)[C@@H](O)[C@H]3O)c[nH]c12; target or system = Zaire ebolavirus; assay = viral replication; test system = HeLa, Kikwit; setting = 25 µM; endpoint = inhibition; result = 94.1%
Substance = COc1cc2c(OC)c3c(c(-c4ccc5c(c4)OCO5)c2cc1OC)C(=O)OC3; target or system = VSV pseudotyped with Ebola virus GP; assay = viral entry, refers to: GFP; endpoint = IC50; result = 0.171 ± 0.0402 µM
Substance = CC(C)(C)c1ccc(CN2CCN(C(c3ccccc3)c3ccc(Cl)cc3)CC2)cc1 (centres unmarked); target or system = Ebola virus Zaire; assay = HIV/EBOV pseudovirion entry; test system = A549; setting = 48 h; endpoint = IC50; result = 12.3 ± 5 µM
Substance = oseltamivir carboxylate; target or system = Influenza A virus; assay = enzyme activity, inhibitor; test system = avian A(H9N2); setting = median over viruses; endpoint = IC50; result = 0.00049 ± 8e-05 µM
Substance = CC(C)CNC(=O)[C@@H](N)Cc1ccc(OP(=O)(O)CO[C@H](CO)Cn2cnc3c(N)ncnc32)cc1; target or system = vaccinia virus; assay = viral replication; endpoint = IC50; result = 0.5 µM
Substance = Nc1ccn([C@@H]2O[C@H](CO)[C@@H](O)C2(F)F)c(=O)n1; target or system = Enterovirus C; assay = viral replication; test system = HeLa; endpoint = IC50; result = 0.3 µM
Substance = CC(C)CNC(=O)[C@@H](N)Cc1ccc(OP2(=O)CO[C@@H](Cn3cnc4c(N)ncnc43)CO2)cc1 (some centres unmarked); target or system = cowpox virus; assay = viral replication; endpoint = IC50; result = 7 µM
Substance = CCCCN(C)CCCNC(=O)c1ccc2nc(N3CCCCC3)sc2c1; target or system = SARS-CoV-2; assay = cytopathic effect; test system = USA_WA1/2020; setting = retest, 8-point, duplicates; endpoint = efficacy; result = 0%
Substance = Cc1cc(COc2ccc([C@]3(N)CCN([C@H](CC(C)C)C(=O)NO)C3=O)cc2)c2ccccc2n1; target or system = SARS-CoV-2 pseudovirus; assay = viral entry; test system = HeLa-ACE2, Delta spike; endpoint = IC50; result = > 10 µM
Substance = CN(C)CCOC(C)(c1ccccc1)c1ccc(Cl)cc1 (centres unmarked); target or system = Marburg virus; assay = HIV/MARV pseudovirion entry; test system = A549; setting = 48 h; endpoint = IC50; result = 6.2 ± 0.8 µM
Substance = CC(C)CCCCCCCCCCCCCCCc1cc(O)cc(O)c1; target or system = Bacillus anthracis; test system = 34F2; endpoint = IC50; result = > 200 µM
Substance = NCCCCCc1cnc[nH]1; target or system = Marburg virus; assay = HIV/MARV pseudovirion entry; test system = A549; setting = 48 h; endpoint = IC50; result = > 100 µM
Substance = COc1cc2c(O)c3c(c(-c4ccc5c(c4)OCO5)c2cc1OC)C(=O)OC3; target or system = VSV pseudotyped with Ebola virus GP; assay = viral entry, refers to: GFP; endpoint = IC50; result = 0.847 ± 0.125 µM
Substance = O=c1[nH]c(Nc2cc(Cl)cc(Cl)c2)nc2cccc(O)c12; target or system = Middle East respiratory syndrome-related coronavirus; assay = viral replication; test system = Vero; endpoint = IC50; result = < 1.1 µM
Substance = Cc1cccc(NC(=O)CS(=O)(=O)c2nc(-c3ccccc3)cn2-c2ccc(Cl)cc2)c1C; target or system = VSVΔG pseudotyped with SARS-CoV-2 S; assay = pseudovirus infection; test system = Alpha; setting = tested range 0.3125 to 40 µM; endpoint = IC50; result = 0.4 µM
Substance = C#CCOc1c2c(c(-c3ccc4c(c3)OCO4)c3cc(OC)c(OC)cc13)C(=O)OC2; target or system = VSV pseudotyped with Ebola virus GP; assay = viral entry, refers to: GFP; test system = HeLa; endpoint = IC50; result = 0.175 ± 0.0217 µM
Substance = CC(C)(C)NC(=O)[C@@H](N)Cc1ccc(OP2(=O)CO[C@@H](Cn3ccc(N)nc3=O)CO2)cc1 (some centres unmarked); target or system = cowpox virus; assay = viral replication; endpoint = IC50; result = 20 µM
Substance = N=C(N)c1ncn([C@@H]2O[C@H](CO)[C@@H](O)[C@H]2O)n1; target or system = Severe acute respiratory syndrome coronavirus; assay = viral replication, inhibitor; test system = Vero 76; endpoint = IC50; result = > 410 µM
Substance = CN1CCN(C(c2ccccc2)c2ccc(Cl)cc2)CC1 (centres unmarked); target or system = Ebola virus Zaire; assay = HIV/EBOV pseudovirion entry; test system = A549; setting = 48 h; endpoint = IC50; result = 2.7 ± 1.2 µM
Substance = COc1cc2c(O)c3c(c(-c4ccc5c(c4)OCO5)c2cc1OC)C(=O)N(/N=C/c1ccc(Cl)cc1)C3; target or system = VSV pseudotyped with Ebola virus GP; assay = viral entry, refers to: GFP; endpoint = IC50; result = 1.17 ± 0.518 µM
Substance = O=C(O)COCCN1CCN(C(c2ccccc2)c2ccc(Cl)cc2)CC1 (centres unmarked); target or system = Marburg virus; assay = HIV/MARV pseudovirion entry; test system = A549; setting = 48 h; endpoint = IC50; result = > 100 µM
Substance = CC(C)(Nc1nc(N2CCNCC2)nc2ccccc12)c1ccccc1; target or system = SARS-CoV-2; assay = cytopathic effect; test system = USA_WA1/2020; setting = round 2, 5-point; endpoint = maximum response; result = 50.6%
Substance = CNC(=O)[C@@H](NC(=O)[C@H](CC(C)C)[C@H](O)C(=O)NO)C(C)(C)C; target or system = human fibrinogen; assay = SDS-PAGE; test system = Daboia russelii; setting = concentration not given, unit not given, together with: WB venom; scale = baseline: untreated fibrinogen; endpoint = remaining fibrinogen Bβ chain; result = 0.693
Substance = NC(=O)c1ncn([C@@H]2O[C@H](CO)[C@@H](O)[C@H]2O)c1O; target or system = Severe acute respiratory syndrome coronavirus; assay = viral replication, inhibitor; test system = Vero 76; endpoint = IC50; result = > 40 µM
Substance = CC(C)(C(=O)O)c1ccc(C(O)CCCN2CCC(C(O)(c3ccccc3)c3ccccc3)CC2)cc1 (centres unmarked); target or system = Marburg virus; assay = HIV/MARV pseudovirion entry; test system = A549; setting = 48 h; endpoint = IC50; result = > 100 µM
Substance = CCOC(=O)CN1CCN(CCCOc2c3c(c(-c4ccc5c(c4)OCO5)c4cc(OC)c(OC)cc24)C(=O)OC3)CC1; target or system = VSV pseudotyped with Ebola virus GP; assay = viral entry, refers to: GFP; endpoint = IC50; result = 0.132 ± 0.0323 µM
Substance = O=C1Nc2ccccc2/C1=C1\Nc2ccccc2\C1=N/O; target or system = SARS-CoV-2 Delta; assay = viral replication, cell-based; endpoint = IC50; result = 9.99 µM
Substance = O=C1c2c(O)c(=O)ccn2N([C@@H]2c3ccccc3SCc3c2ccc(F)c3F)[C@@H]2COCCN12; target or system = influenza A virus H5N1; assay = viral replication; endpoint = IC50; result = < 3e-05 µM
Substance = ergoloid mesylates; target or system = SARS-CoV-2 Delta; assay = viral replication, NanoLuc reporter virus; endpoint = IC50; result = 7.95 µM
Substance = NC(=O)c1ncn([C@@H]2O[C@H](COP(=O)(O)O)[C@@H](O)[C@H]2O)n1; target or system = Severe acute respiratory syndrome coronavirus; assay = viral replication, inhibitor; test system = Vero 76; endpoint = IC50; result = > 30 µM
Substance = COc1cc2c(O)c3c(c(-c4ccc5c(c4)OCO5)c2cc1OC)C(=O)N(/N=C/c1cccnc1)C3; target or system = VSV pseudotyped with Ebola virus GP; assay = viral entry, refers to: GFP; endpoint = IC50; result = 4.48 ± 0.467 µM
Substance = CC[C@H](C)[C@H](NC(=O)[C@H](CC(C)C)NC(=O)[C@H](Cc1c[nH]c2ccccc12)NC(=O)[C@H](CCC(N)=O)NC(=O)[C@@H](NC(=O)[C@H](Cc1ccccc1)NC(=O)[C@H](C)NC(=O)[C@H](CCCCNC(=O)COCCOCCNC(=O)COCCOCCNC(=O)CC[C@H](NC(=O)CCCCCCCCCCCCCCCCCCC(=O)O)C(=O)O)NC(=O)[C@H](CCC(N)=O)NC(=O)[C@H](C)NC(=O)[C@@H](NC(=O)[C@H](CCCCN)NC(=O)[C@H](CC(=O)O)NC(=O)[C@H](CC(C)C)NC(=O)C(C)(C)NC(=O)[C@@H](NC(=O)[C@H](CO)NC(=O)[C@H](Cc1ccc(O)cc1)NC(=O)[C@H](CC(=O)O)NC(=O)[C@H](CO)NC(=O)[C@@H](NC(=O)[C@H](Cc1ccccc1)NC(=O)[C@@H](NC(=O)CNC(=O)[C@H](CCC(=O)O)NC(=O)C(C)(C)NC(=O)[C@@H](N)Cc1ccc(O)cc1)[C@@H](C)O)[C@@H](C)O)[C@@H](C)CC)[C@@H](C)CC)C(C)C)C(=O)N[C@@H](C)C(=O)NCC(=O)NCC(=O)N1CCC[C@H]1C(=O)N[C@@H](CO)C(=O)N[C@@H](CO)C(=O)NCC(=O)N[C@@H](C)C(=O)N1CCC[C@H]1C(=O)N1CCC[C@H]1C(=O)N1CCC[C@H]1C(=O)N[C@@H](CO)C(N)=O; test system = healthy subjects, single ascending dose; setting = 2.5 mg, day 29; scale = baseline: baseline; endpoint = systolic blood pressure change; result = 2.58 mmHg
Substance = COC(=O)[C@@H](N)Cc1ccc(OP2(=O)CO[C@@H](Cn3cnc4c(N)ncnc43)CO2)cc1 (some centres unmarked); target or system = cowpox virus; assay = viral replication; endpoint = IC50; result = 10 µM and 7 µM
Substance = O=C(c1ccc(OCCN2CCCCC2)cc1)c1c(-c2ccc(O)cc2)sc2cc(O)ccc12; target or system = MERS-CoV spike pseudovirus; assay = pseudovirus entry; test system = Huh-7; setting = 24 h; endpoint = IC50; result = 1.1 µM
Substance = COc1cc2c(O)c3c(c(-c4ccc5c(c4)OCO5)c2cc1OC)C(=O)N(/N=C/c1c(F)c(F)c(F)c(F)c1F)C3; target or system = VSV pseudotyped with Ebola virus GP; assay = viral entry, refers to: GFP; test system = HeLa; endpoint = IC50; result = 8.74 ± 2.18 µM
Substance = CN1CCN(C(c2ccccc2)c2ccccc2)CC1; target or system = Marburg virus; assay = HIV/MARV pseudovirion entry; test system = A549; setting = 48 h; endpoint = IC50; result = 18.9 ± 1.5 µM
Substance = COC(=O)[C@@H](N)COP1(=O)CO[C@@H](Cn2cnc3c(N)ncnc32)CO1 (some centres unmarked); target or system = cowpox virus; assay = viral replication; endpoint = IC50; result = 20 µM
Substance = CCN(CCO)CCCC(C)Nc1ccnc2cc(Cl)ccc12 (centres unmarked); target or system = SARS-CoV-2 Delta; assay = viral replication, cell-based; setting = 48 h; endpoint = IC50; result = > 100 µM
Substance = CN(C)CCOC(C)(c1ccccc1)c1ccccn1 (centres unmarked); target or system = Ebola virus Zaire; assay = HIV/EBOV pseudovirion entry; test system = A549; setting = 48 h; endpoint = IC50; result = 14.7 ± 2.1 µM
Substance = CC(=O)N[C@H]1[C@H]([C@H](O)[C@H](O)CO)OC(C(=O)O)=C[C@@H]1N=C(N)N; target or system = influenza A virus H7N9; assay = viral replication; endpoint = IC50; result = 0.0435 µM
Substance = Cn1cnc(Cn2c(=O)[nH]/c(=N\c3cc4cn(C)nc4cc3Cl)n(Cc3cc(F)c(F)cc3F)c2=O)n1; test system = human, severe renal impairment, plasma; setting = oral, 375 mg single dose; endpoint = terminal elimination rate constant; result = 2.72e-06 s⁻¹
Substance = N=C(N)Nc1ccc(C(=O)Oc2ccc3cc(C(=N)N)ccc3c2)cc1; target or system = VSVΔG pseudotyped with SARS-CoV-2 S; assay = pseudovirus infection; test system = Alpha; setting = tested range 0.3125 to 40 µM; endpoint = IC50; result = 0.93 µM
Substance = COC(=O)[C@@H](N)Cc1ccc(OP2(=O)CO[C@@H](Cn3ccc(N)nc3=O)CO2)cc1 (some centres unmarked); target or system = cowpox virus; assay = viral replication; endpoint = IC50; result = 50 µM
Substance = NC(=O)c1ncn([C@@H]2O[C@H](CO)[C@@H](O)[C@H]2O)n1; target or system = Western equine encephalitis virus; assay = replicon replication; endpoint = IC50; result = 16 µM

A few entries again:
Substance = COc1cc2c(O)c3c(c(-c4ccc5c(c4)OCO5)c2cc1OC)C(=O)OC3; target or system = VSV pseudotyped with Ebola virus GP; assay = viral entry, refers to: GFP; endpoint = IC50; result = 0.847 ± 0.125 µM
Substance = O=c1[nH]c(Nc2cc(Cl)cc(Cl)c2)nc2cccc(O)c12; target or system = Middle East respiratory syndrome-related coronavirus; assay = viral replication; test system = Vero; endpoint = IC50; result = < 1.1 µM
Substance = Cc1cccc(NC(=O)CS(=O)(=O)c2nc(-c3ccccc3)cn2-c2ccc(Cl)cc2)c1C; target or system = VSVΔG pseudotyped with SARS-CoV-2 S; assay = pseudovirus infection; test system = Alpha; setting = tested range 0.3125 to 40 µM; endpoint = IC50; result = 0.4 µM
Substance = C#CCOc1c2c(c(-c3ccc4c(c3)OCO4)c3cc(OC)c(OC)cc13)C(=O)OC2; target or system = VSV pseudotyped with Ebola virus GP; assay = viral entry, refers to: GFP; test system = HeLa; endpoint = IC50; result = 0.175 ± 0.0217 µM
